Assay results from different studies.
Each numbered part is a random draw from the data of one study; scales do not carry over between parts. “And” joins repeats or separate records; there may be more than shown.
Chain of UniProt P33981 (whole entry, looked up): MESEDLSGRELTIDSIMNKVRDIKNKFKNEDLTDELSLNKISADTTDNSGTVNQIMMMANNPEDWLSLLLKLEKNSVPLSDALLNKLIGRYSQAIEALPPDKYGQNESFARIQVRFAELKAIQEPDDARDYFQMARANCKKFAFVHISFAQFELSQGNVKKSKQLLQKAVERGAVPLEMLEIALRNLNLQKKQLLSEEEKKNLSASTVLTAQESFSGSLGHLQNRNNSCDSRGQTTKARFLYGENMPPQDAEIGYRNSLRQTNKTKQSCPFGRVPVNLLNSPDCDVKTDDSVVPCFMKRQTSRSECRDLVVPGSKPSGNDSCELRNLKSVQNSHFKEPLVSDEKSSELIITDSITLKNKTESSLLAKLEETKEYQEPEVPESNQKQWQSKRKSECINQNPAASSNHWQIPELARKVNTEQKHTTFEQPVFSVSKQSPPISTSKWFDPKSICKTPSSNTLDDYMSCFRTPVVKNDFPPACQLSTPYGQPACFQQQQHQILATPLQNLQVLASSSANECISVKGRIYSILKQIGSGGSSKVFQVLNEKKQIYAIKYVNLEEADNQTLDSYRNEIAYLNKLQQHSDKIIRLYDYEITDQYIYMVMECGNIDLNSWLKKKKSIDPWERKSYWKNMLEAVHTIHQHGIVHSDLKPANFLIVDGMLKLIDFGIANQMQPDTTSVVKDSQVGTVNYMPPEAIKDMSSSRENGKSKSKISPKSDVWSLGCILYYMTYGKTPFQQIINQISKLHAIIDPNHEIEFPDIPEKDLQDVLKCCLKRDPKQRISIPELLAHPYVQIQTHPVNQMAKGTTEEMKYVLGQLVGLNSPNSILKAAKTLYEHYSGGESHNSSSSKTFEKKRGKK
Chain of UniProt Q99683 (whole entry, looked up): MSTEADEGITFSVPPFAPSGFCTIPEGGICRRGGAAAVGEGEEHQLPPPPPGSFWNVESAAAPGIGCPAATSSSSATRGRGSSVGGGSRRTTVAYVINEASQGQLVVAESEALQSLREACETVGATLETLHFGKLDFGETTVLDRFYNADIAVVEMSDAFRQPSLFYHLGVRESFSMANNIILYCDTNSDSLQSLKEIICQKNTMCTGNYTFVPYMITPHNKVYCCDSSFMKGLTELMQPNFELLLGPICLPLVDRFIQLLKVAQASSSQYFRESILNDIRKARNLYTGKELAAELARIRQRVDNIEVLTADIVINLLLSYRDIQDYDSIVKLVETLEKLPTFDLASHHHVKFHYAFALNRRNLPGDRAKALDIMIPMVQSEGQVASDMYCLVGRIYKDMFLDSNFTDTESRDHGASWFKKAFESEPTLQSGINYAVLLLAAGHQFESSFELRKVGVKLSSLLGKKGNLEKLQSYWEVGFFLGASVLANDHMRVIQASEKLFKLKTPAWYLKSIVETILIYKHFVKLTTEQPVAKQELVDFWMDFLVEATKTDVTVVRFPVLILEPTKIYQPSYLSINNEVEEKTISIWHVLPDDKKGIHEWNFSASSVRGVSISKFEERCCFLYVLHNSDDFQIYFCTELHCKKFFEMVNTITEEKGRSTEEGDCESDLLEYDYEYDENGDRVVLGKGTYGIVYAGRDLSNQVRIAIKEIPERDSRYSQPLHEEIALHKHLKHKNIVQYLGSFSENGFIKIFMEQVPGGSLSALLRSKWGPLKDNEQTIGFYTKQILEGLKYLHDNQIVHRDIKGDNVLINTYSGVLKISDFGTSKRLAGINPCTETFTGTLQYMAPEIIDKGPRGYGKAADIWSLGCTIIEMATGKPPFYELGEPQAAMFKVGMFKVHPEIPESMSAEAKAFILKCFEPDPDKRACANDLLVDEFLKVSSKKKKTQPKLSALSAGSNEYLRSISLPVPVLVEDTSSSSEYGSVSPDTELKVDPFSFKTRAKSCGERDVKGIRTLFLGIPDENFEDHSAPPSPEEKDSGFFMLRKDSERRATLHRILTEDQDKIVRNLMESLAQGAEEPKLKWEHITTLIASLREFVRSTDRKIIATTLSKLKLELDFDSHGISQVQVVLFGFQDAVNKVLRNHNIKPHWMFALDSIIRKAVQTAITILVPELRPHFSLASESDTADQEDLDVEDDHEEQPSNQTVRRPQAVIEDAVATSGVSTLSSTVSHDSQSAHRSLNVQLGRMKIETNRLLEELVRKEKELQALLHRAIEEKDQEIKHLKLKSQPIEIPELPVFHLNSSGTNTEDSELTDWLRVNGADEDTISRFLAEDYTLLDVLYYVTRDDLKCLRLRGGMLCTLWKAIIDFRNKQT
Chain of UniProt Q9HAZ1 (whole entry, looked up): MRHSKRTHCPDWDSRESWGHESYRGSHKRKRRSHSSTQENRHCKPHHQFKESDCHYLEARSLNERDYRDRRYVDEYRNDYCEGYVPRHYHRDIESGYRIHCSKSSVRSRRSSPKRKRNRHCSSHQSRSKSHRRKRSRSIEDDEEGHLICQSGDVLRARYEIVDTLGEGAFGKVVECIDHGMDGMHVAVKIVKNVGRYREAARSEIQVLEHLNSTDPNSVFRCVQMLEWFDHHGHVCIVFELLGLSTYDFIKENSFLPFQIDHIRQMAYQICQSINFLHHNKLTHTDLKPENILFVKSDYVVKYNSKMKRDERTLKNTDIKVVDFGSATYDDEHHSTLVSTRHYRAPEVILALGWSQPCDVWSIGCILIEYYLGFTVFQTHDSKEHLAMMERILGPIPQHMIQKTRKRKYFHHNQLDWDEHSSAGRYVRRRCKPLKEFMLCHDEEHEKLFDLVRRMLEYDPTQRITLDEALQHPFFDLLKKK
Chain of UniProt P42681 (whole entry, looked up): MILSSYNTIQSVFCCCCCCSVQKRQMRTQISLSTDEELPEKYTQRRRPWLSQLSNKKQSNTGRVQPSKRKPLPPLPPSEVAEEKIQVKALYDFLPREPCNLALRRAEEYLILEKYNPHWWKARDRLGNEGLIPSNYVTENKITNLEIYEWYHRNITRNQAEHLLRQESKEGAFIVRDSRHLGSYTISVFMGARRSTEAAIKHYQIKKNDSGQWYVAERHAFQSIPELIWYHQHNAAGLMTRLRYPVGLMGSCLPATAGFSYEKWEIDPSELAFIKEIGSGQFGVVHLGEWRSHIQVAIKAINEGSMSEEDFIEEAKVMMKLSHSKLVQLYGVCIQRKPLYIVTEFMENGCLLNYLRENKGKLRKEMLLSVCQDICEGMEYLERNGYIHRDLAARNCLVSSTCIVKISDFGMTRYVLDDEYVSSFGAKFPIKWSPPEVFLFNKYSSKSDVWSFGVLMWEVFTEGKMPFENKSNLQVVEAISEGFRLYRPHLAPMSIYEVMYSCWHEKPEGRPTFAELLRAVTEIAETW
Chain of UniProt P50750 (whole entry, looked up): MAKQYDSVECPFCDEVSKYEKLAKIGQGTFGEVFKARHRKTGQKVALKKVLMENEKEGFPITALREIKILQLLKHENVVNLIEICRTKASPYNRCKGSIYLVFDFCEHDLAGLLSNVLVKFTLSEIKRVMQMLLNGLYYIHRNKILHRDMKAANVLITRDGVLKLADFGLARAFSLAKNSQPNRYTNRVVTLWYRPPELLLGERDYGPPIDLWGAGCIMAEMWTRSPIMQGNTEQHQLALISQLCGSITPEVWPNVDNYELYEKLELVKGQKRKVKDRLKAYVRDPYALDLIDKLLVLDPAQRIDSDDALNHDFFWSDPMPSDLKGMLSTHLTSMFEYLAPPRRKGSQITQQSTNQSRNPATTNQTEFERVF
Chain of UniProt P49761 (whole entry, looked up): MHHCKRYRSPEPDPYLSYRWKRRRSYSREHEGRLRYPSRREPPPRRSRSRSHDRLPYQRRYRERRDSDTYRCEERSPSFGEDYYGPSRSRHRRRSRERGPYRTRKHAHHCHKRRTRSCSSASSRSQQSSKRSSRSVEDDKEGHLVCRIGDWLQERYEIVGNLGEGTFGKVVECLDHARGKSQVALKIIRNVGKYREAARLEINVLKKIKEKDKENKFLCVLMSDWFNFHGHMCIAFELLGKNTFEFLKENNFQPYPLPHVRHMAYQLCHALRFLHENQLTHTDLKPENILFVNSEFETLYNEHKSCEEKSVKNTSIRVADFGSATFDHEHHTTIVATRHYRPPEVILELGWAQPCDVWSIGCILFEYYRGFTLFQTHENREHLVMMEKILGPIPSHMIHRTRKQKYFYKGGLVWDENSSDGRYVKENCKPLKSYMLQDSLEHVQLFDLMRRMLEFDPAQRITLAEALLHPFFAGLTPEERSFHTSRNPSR

Study 1
Cell line: HuT78
Concentration: 2 µM
Time: 48 h
Reference: untreated
Compound	viability
CCOC(=O)c1cnc2ccc(-c3cncc(NS(=O)(=O)c4ccccc4)c3)cn12	7.5%
O=C(NCCO)c1cccc(-c2cc(Nc3ccc(OC(F)(F)F)cc3)ncn2)c1	112%
Cc1cc(N2CCOCC2)cc2[nH]c(-c3c(NC[C@@H](O)c4cccc(Cl)c4)cc[nH]c3=O)nc12	144%
CCc1cc(Nc2nccc(-c3c(-c4ccc(OC)c(C(=O)Nc5c(F)cccc5F)c4)nc4ccccn34)n2)c(OC)cc1N1CCC(N2CCN(S(C)(=O)=O)CC2)CC1	128%
c1cncc(CN2CCC(n3ncc4c(N5CCOCC5)nc(-c5ccc6[nH]ccc6c5)nc43)CC2)c1	78.2%
CNC(=O)c1cc(Oc2ccc(NC(=O)Nc3cc(C(C)(C)C)nn3-c3ccc4ncccc4c3)c(F)c2)ccn1	55.8%
CNC(=O)c1c(F)cccc1Nc1nc(Nc2cc3c(ccn3C(=O)CN(C)C)cc2OC)nc2[nH]ccc12	96.9%
Cc1cc(C(C)Nc2ccccc2)c2nc(N3CCOCC3)cc(=O)n2c1 (stereo not shown)	93.1%

Study 2
Compound: C[C@@H]1CN(c2cc(-c3n[nH]c4ccc(OC5(C)CC5)cc34)ncn2)C[C@H](C)O1
MAP3K14: Mitogen-activated protein kinase kinase kinase 14 (MAP3K14, Homo sapiens, UniProt Q99558)
Chain of UniProt Q99558 (whole entry, looked up): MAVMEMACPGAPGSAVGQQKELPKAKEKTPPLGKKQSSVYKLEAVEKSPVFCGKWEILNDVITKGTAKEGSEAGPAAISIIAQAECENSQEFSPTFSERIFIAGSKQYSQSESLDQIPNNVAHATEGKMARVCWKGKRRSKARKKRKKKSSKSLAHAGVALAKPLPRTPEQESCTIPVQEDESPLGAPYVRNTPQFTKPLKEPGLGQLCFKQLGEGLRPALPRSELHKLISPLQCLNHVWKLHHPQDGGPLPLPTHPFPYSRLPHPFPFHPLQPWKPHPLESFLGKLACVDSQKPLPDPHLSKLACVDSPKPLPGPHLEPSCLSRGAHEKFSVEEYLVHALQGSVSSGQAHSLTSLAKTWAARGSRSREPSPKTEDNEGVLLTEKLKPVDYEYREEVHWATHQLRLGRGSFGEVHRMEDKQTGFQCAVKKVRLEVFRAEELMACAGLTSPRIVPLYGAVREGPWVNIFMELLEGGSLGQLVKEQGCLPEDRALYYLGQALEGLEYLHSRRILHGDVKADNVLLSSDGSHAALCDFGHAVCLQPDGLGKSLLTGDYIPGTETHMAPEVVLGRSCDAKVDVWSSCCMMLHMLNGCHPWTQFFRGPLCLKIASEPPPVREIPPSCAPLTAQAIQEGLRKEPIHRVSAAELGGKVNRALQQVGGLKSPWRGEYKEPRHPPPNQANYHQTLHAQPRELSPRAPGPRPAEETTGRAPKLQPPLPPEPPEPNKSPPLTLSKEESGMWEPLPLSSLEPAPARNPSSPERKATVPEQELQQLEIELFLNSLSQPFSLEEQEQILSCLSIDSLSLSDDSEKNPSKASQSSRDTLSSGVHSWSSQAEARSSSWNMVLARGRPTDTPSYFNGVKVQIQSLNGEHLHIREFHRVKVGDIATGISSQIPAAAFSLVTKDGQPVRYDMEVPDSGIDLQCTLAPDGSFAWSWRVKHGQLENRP
target	assay	system	EC50
TTK (Homo sapiens, UniProt P33981)	target engagement, NanoBRET	live cells	> 50 µM
CLK4 (Homo sapiens, UniProt Q9HAZ1)	target engagement in cells, BRET	–	24 µM
MAP3K5 (Homo sapiens, UniProt Q99683)	target engagement, NanoBRET	live cells	4.33 µM and 15.2 µM and 15.9 µM
CLK2 (Homo sapiens, UniProt P49760)	target engagement in cells, BRET	–	2 µM
MAP3K14	target engagement, NanoBRET	live cells	> 50 µM
MAP3K14	target engagement in cells, BRET	–	> 50 µM

Study 3
Structure (SMILES): Cc1cccc(-c2[nH]c(C(C)(C)C)nc2-c2ccc3c(c2)OCO3)n1
Observed: enzyme activity
Mode: inhibitor
Concentration: 0.5 µM
Reference: control
target	remaining activity
Myosin-IIIb (MYO3B, Homo sapiens, UniProt Q8WXR4)	79.2%
GRK4 (Homo sapiens, UniProt P32298)	101%
CLK4 (Homo sapiens, UniProt Q9HAZ1)	95.8%
CLK3 (Homo sapiens, UniProt P49761)	104%
DDR2 (Homo sapiens, UniProt Q16832)	98.3%
TXK (Homo sapiens, UniProt P42681)	100%
PRKG2 (Homo sapiens, UniProt Q13237)	95.9%
KDR (Homo sapiens, UniProt P35968)	94.7%
PLK3 (Homo sapiens, UniProt Q9H4B4)	95.6%
PAK3 (Homo sapiens, UniProt O75914)	95.9%
MET (Homo sapiens, UniProt P08581)	82.7%
CDC42BPB (Homo sapiens, UniProt Q9Y5S2)	102%
Cyclin-dependent kinase 9, with cyclin K (CDK9, Homo sapiens, UniProt P50750)	106%
MAPK1 (Homo sapiens, UniProt P28482)	95.8%

Study 4
Compound: CN1CCC[C@H]1COc1nc2c(c(N3CCN(S(C)(=O)=O)[C@@H](CC#N)C3)n1)CCN(c1cccc3cccc(Cl)c13)C2
Observed: binding
Mode: competitor
Method: NanoBRET
Cell line: HEK293
KRAS Q61H: GTPase KRas (KRAS, Homo sapiens, UniProt P01116, Q61H)
target	setting	normalized BRET
KRAS Q61H	1.69 nM	101% and 104% and 87.7%
KRAS Q61H	15.2 nM	91.8% and 101% and 84.9%
GTPase KRas (KRAS, Homo sapiens, UniProt P01116, G13D)	33.3 µM	3.38% and 3.98% and 4.7%
KRAS Q61H	137 nM	86.2% and 87.7% and 80.3%
KRAS Q61H	5.08 nM	87.2% and 107% and 99.2%
GTPase KRas (KRAS, Homo sapiens, UniProt P01116, G12D)	5.08 nM	98.8% and 96.2% and 107%

Excerpt of the above (study 1):
Compound	viability
CCc1cc(Nc2nccc(-c3c(-c4ccc(OC)c(C(=O)Nc5c(F)cccc5F)c4)nc4ccccn34)n2)c(OC)cc1N1CCC(N2CCN(S(C)(=O)=O)CC2)CC1	128%
c1cncc(CN2CCC(n3ncc4c(N5CCOCC5)nc(-c5ccc6[nH]ccc6c5)nc43)CC2)c1	78.2%
CNC(=O)c1cc(Oc2ccc(NC(=O)Nc3cc(C(C)(C)C)nn3-c3ccc4ncccc4c3)c(F)c2)ccn1	55.8%
CNC(=O)c1c(F)cccc1Nc1nc(Nc2cc3c(ccn3C(=O)CN(C)C)cc2OC)nc2[nH]ccc12	96.9%
Cc1cc(C(C)Nc2ccccc2)c2nc(N3CCOCC3)cc(=O)n2c1 (stereo not shown)	93.1%
